# Measured values from different studies.
# Numbered parts are unrelated; each lists some results of a single study.
# Sequence of UniProt P05771 (whole entry, looked up): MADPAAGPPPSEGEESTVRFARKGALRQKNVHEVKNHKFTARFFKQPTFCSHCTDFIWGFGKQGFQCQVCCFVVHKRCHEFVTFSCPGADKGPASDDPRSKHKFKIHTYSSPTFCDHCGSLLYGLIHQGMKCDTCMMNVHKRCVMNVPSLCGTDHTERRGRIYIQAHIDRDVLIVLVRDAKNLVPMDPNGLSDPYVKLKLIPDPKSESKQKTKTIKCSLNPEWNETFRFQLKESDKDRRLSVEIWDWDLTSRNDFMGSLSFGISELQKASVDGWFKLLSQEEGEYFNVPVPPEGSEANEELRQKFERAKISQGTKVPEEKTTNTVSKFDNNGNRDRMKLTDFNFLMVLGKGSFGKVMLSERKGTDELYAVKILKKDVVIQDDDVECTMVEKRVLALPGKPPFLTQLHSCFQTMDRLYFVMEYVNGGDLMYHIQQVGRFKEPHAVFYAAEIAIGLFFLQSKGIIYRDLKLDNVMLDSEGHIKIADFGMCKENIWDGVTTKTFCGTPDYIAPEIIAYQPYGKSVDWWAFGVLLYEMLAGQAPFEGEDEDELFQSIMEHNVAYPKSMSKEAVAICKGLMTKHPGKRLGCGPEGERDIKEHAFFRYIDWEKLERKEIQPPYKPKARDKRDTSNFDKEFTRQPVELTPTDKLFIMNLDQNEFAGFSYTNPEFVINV

# Sample 1
# Substance: PhoQ, residues 284 288 289 292 302 303 SLSLLA
# Technique: Sort-seq
# Refers to: YFP reporter
# Matrix: E. coli
# Setting: PhoQ-PhoP variant library
# Together with: 10 µM Mg2+
# Relative to: high Mg2+ state
# Direction: higher = stronger signaling
target,fold induction
"PhoP, residues 12 14 15 18 19 AYFRS (Escherichia coli, UniProt P23836)",11.1
"PhoP, residues 12 14 15 18 19 SFCSL (Escherichia coli, UniProt P23836)",95.4
"PhoP, residues 12 14 15 18 19 HHYTI (Escherichia coli, UniProt P23836)",10.8

# Sample 2
# Target: RING finger protein unkempt homolog, zinc fingers 1-6, GST-SBP tag (UNK, Homo sapiens, UniProt Q9C0B0, residues 30-357)
# Sequence of UniProt Q9C0B0 (30-357, looked up): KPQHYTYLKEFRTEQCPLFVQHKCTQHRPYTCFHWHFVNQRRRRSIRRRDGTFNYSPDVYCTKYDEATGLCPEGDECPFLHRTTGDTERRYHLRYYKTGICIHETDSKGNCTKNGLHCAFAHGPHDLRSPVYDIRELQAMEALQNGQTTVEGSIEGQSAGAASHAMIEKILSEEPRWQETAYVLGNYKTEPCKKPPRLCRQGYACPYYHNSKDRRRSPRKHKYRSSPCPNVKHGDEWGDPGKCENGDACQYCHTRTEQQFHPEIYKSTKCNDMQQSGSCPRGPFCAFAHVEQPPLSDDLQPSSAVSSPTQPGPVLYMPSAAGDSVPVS
# Technique: RNA Bind-n-Seq
# Molecule type: RNA
# Matrix: in vitro
# Concentration: not given
# Setting: RNA with constant flanks, human and mouse sites, ends assumed
# Relative to: input RNA pool
# Direction: higher = stronger binding
# Shared flanks, not repeated: GGGAGUUCUACAGUCCGACGAUC … CAACAGAGGAUUGAGCAUCA
Strand,bound/input enrichment [ratio]
CACAUCAAAUAUGCUGUCACCACUGGGGACCACGGGAUCAUUCGAACUCUGGAUUUACCCAUCUAUGUCACACGGGUGAAGGGCAACAAUGUAUACUGCCUAGACAGGGAGUGUCGUCCC,0.122
CUGGGUAUUAUUUCUCGAGCUGUUAAACACCUUUUUAAGAGUAUUGAAGAAAAAAAACACAUAGCAAUUAAAAAUGGGCUUCCUGCUCCAGAUUUUAAAGUGAAUGCCCAAUUCUUAGAG,3.56
UUUUUUAGGAUUUGCCCUCUCUUUUCUCUCCUCCCAGGAAAGGGAGGGGAAAGAAUUGUAUUUUUUCCCAAGUCCUAAAUCAUCUAUAUGUUAAAUAUCCGUGCCGAUCUGUCUUGAAGG,0.383
CACGGCUGAUUCGCUCAUCGGAAGAGCUGCACACAUAGCUGUUCUUGAUUCUGAGAUAUUUUUAGAGAAGUUUUUCCUGGUUGCCGCCCUCAAAUAUUUUCAGUAGGACCGAAGCAUCAU,1.07
GGCUUGGAGUUUGGCAAGUUACCAUUUGGUGCCUGCGAAGAUCCUAUUAGUGAACUCCAUUUAGCUACUACAUGGCCUCAUCUGACCGAAGGGAUCAUUGUGGAUAAUGAUGUUUAUUCU,0.619
ACCGAACGAAGAAGGGACGAGCUCUCUGAAGAGAUCAACAACUUAAGAGAGAAGGUCAUGAAGCAGUCGGAGGAGAACAACAACCUGCAGAGCCAGGUGCAGAAGCUCACAGAGGAGAAC,0.152
AUCAAUCAAGCGGCCCUUCUCAGCAUUCCUGGCUUUGUUGAGCGGCUUUGCAAACUGGCGACUCGAAAGGUGUCAGAGUCAACGGGCACAGCCAGCUUCCUUCAGGAGUUGGAAGAGUGG,0.123
ACAAAACAGAGCGAGAAAGCUUCUCCCUGCAGUCUUCUUGGAGGCCUCCUGGUUUCUCACCCAUUGUUGGUGGGUGUAUUUCAAUUUUUUGAUUCCCUGGACUGUGGGUUAUGAAAUCAA,0.164

# Sample 3
# Target: Sal-like protein 4, full length isoform B (SALL4, Homo sapiens, UniProt Q9UJQ4-2, residues 1-616)
# Technique: universal PBM
# Molecule type: double-stranded DNA, one strand shown
# Matrix: in vitro
# Concentration: not given
# Setting: 8-mer, flanks averaged, mean of replicates
# Direction: higher = stronger binding
Strand,E-score
ATGTTCTA,0.123
AGATTGAA,0.236
TATTGAGA,0.287
AGTTTTAT,0.303
GCACAAAC,-0.0319
AATCGAAC,0.0439
ACTGTCTC,-0.151
CAGAGTAC,-0.0786

# Other studies, line by line
Structure (SMILES),target,effect on,mode,concentration,relative to,measurement,result
CC(=O)O/N=C1/C(c2c(O)[nH]c3cc(Br)ccc23)=Nc2ccccc21,"Protein kinase C beta type, isoform beta-I (PRKCB, Homo sapiens, UniProt P05771)",enzyme activity,inhibitor,0.5 µM,control,remaining activity,105%

# For quick reference, copied from above (sample 2):
Strand,bound/input enrichment [ratio]
CACGGCUGAUUCGCUCAUCGGAAGAGCUGCACACAUAGCUGUUCUUGAUUCUGAGAUAUUUUUAGAGAAGUUUUUCCUGGUUGCCGCCCUCAAAUAUUUUCAGUAGGACCGAAGCAUCAU,1.07
GGCUUGGAGUUUGGCAAGUUACCAUUUGGUGCCUGCGAAGAUCCUAUUAGUGAACUCCAUUUAGCUACUACAUGGCCUCAUCUGACCGAAGGGAUCAUUGUGGAUAAUGAUGUUUAUUCU,0.619
